Assay results of several laboratories.
Every numbered part comes from another study and shows a few of its results, in no order.

Block 1 — method: RNA Bind-n-Seq; form: RNA; medium: in vitro; tested at: 365 nM; relative to: no-protein control; direction: higher = stronger binding
Target: RNA binding protein fox-1 homolog 2, RRM domain, GST-SBP tag (RBFOX2, Homo sapiens, UniProt O43251-10, residues 100-194)
Setting: natural RNA segment, single round, ends assumed
Constant ends, left off below: GGGAGUUCUACAGUCCGACGAUC … UGGAAUUCUCGGGUGCCAA
Construct (chain): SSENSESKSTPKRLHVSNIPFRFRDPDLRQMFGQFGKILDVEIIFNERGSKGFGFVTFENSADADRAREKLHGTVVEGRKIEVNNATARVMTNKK
Sequence | RBNS enrichment (R)
CCCACCACAGGCAUAAGCUAUCACCUAGCAGCCUCAAAACGGGUCAGUAUUAAGGUUUUCAACCGGAAGGAGGCCAACCAGCCCGACAGUGCCAUCCCCACCUUCACCUC | 0.235
ACAAGACCACACUUUGGGACUUGGGAGCUGGGGCUGAAGUUGCUCUGUACCCAUGAACUCCCAGUUUGCGAAUUAUAGAGACAAUCUAUUUUGUUACUUGCACUUGUUAU | 1.33
CCUGUGUCUCACUCUGUCUUCUUGUCACUUGAUGUGCAUUUGCUGUUGUUCUUUCGUUUCUGUCUAAAUGUCAGUGUGUUCAAACCCCCAGAGGGUUCUGUUUUUCCCAU | 0.773
CAAGUUUUUCUCUGGGGUCCUCUUUCAAGGAUGUCCACGGUACCUUCCUCCUGAAACUUGAGGAAGUCUUUUGUCUUCCAGCUGCUCAGGGUUCUCUGGUCCAAGACCCU | 0.234
CUGAUCCUACUACUGGAGCUUAAAAAUAACAAUUAAUGAAAAGUGUUAGAAACAAGGCUACAGUUUUAAAAUGGCUUGGUUCUGUCCUUGCAAUUGCUUUGUCGUGGCAA | 0.313
GUGGACUUCAAAUCCCAGCUUUACCGUCAUCACUGUUCAGUUUUCUUCGAAGGUACGGAUGAGGAGAAAUCUUCUAUGAGCAACUCCGUGCUGUCUGCCUAGGAAUCCUU | 0.784
ACUAUGUUAUUUCCUUUGUUCUGGUAUCCUUCCCUUGGAGGACCUUCUCUGAGUAGUGGCUCCCCAGGUUUGUCCUUUGAGCUGAGGCAGGAGGCUCACCCAUUCUUCUG | 0.416
AUGGAGCAGUGGGGAGACACCAGGGCUGCAUUAUUUGAAUUAUUUUGCAGCCACAUGGGACUUUUCUGGGUUGACAAGAGGAUGCUCUAGUCAUGUAAGCCACUAAGAUA | 0.419
UUCAUGAACAUCUUUGAUCCUUCCAUUUCAUUUAUUCAUCCAUCCAUUCAACAAGUAUUUGCUAAACACUAACUUAAGCUAAUGCUAGGGUAGUGACUGAGAUGUAAAAA | 0.261
AACCGUUUUACACUGGAUGUUUCUCAUGUAGAACAAGAAAUCUUUCUGGAAUUGAUGUUUACAUGUCUGUUGUUGGUCAUCUCUCCUGUGUCUUAAAUACUUUAAUGUUG | 0.579
GUACCUGCAAGGCAGGUGAGGGCUCUAGCAAGCCCAUGAAGUUCUCAGUGAGCCUCAUUCCCUAGAGCUGAACCUCCACUGCAGGCCCCAAAUCUGAGAUCACAUGAUCU | 0.237
GGGUGACUUGUGGUUGUAGAGUUGGCCAUCAUUCUGCACUGUUGAUAGCUGUCUGCUCCAGUUUCUGGUCUUUGGUAUACUCAGUGUGGCCCGGUGAUGAAGGCUUUCUA | 0.509

Block 2 — method: RNA Bind-n-Seq; form: RNA; medium: in vitro; tested at: not given; relative to: input RNA pool; direction: higher = stronger binding
Target: RING finger protein unkempt homolog, zinc fingers 1-6, GST-SBP tag (UNK, Homo sapiens, UniProt Q9C0B0, residues 30-357)
Setting: RNA with constant flanks, human-mouse chimeric sites, ends assumed
Constant ends, left off below: GGGAGUUCUACAGUCCGACGAUC … CAACAGAGGAUUGAGCAUCA
Residues (chain): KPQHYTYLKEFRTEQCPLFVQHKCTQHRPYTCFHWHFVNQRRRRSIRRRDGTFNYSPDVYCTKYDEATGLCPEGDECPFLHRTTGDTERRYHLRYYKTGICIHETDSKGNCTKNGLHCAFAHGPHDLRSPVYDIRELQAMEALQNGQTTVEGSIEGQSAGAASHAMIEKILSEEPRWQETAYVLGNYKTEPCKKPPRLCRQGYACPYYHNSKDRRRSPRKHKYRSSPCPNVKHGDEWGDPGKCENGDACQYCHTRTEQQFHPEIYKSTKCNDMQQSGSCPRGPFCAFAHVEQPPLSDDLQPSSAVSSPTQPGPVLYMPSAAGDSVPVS
Sequence | bound/input enrichment
GGAUCUUUGGGACUGUUUUACUUAAUUGGUCAUUGAUAGCUUAACAAACAUGGAGAUAAGAUUAGAAAUCUUGACAUCAACAGGUAUUAAGCAGAAAAAACCAUGGCCCAGAGUAUCCUG | 0.169 ratio
CACAGAGCAGCACCUACCCCCUCCUCCUUUCCACACCUGCAAACUCUUUUACUUGGGCUGAAUAUUUAGUGUUAAUUCAUCUCAGCUUUGAGGGCUCCUGUGGCAAAUUCCCGGAUUAAA | 0.751 ratio
UACUCAACUUUCUUGCCACAUUUUGAAUUCCAAGACAUUAUCCCUCCAGAUGACUUCCUAACGAGUGAUGAAGAAGUAGAUUUGGUUUUAUUUGGAACUAUGAGAGGACAAGUUGUUGGA | 0.248 ratio
GAUCAUGAACCACCAUCAGAAAUGAAGGAUGAGACUACCAGACGAGCCAAAACAGCUGCGCUACAGAAAAGUAAACUUAACCUUGCACCAAUUUCUCAUGAAGAUACAAGUUAAGAGAGC | 0.302 ratio
UUGAAAACUGAUUCAAGUAAGUUUGAGUAUCACAAUGUUAGCUUUCUAAUUCCACACAAGUACUUGGUUUUUACAGUUUAUAAUCUGACAUCACCCCCCGUUUAUAAGUAAAGAGCAACU | 0.952 ratio
UGUGAACUGAAAGGUGUGAUCUAAAAACAAGAUGACUUUUCCUGGCACAUAUUCCAAAGCAAAGACUUUGUUGCCUGCUGCUUAUUGUCUAAUUUACAGGGAUAUUUAAUUUUGUCAGGU | 0.205 ratio
CGGAAGUGAUCCCCUGCUCAUUUUUCUCUUUUCUUUCUUUCCUUUAGGAAAAGCCUAAAGAUUAGGUUGUAAGAAAAACAGAAGCCAUGUUUCGAAGACCUGUGUUACAGGUAUUUCGUC | 0.0694 ratio
AAAGUGAUGACUAUGUUUGUACAGCGACAGGUAUUUUCUGAGAACAAAGAUGAGAUUGCGUUAGUCCUCUAUGGCACAGAUGGCACUGAUAAUGCCCUUGCUGGCAAGGACCAGUAUCAG | 0.111 ratio
UCUUUAAAAAAAAAAUUACCUUUUCUGCAUAUUAUAGCCCUCCCAUAGAUCCACGUUCAAGCUCAAAGAGCAAAGGCUUUGCACGGAUCUGAUGAUGCUGAUGAAGAAAGAUUUCUGAGA | 1.08 ratio
UCCCAAAUCCAGCAGCUAGAAGGAGCCAAUUGUUUGUCACUCCACACACAGGGAAGGCGAUAACAUUGUACAUUGGUUUACAUUUUUCUCCUUGAAUGAUUUUUCUAGAGGUCAUAGUGC | 0.379 ratio
GAUAAGAAAAGCUUGUUGGAGACCCGCUUGCAUGUCACUGGUAGAGACCUGAGGUGUCAAAUAGCUGAAACUUUCGGACUUCAAGAAAAUUAUAUCAAGAUCGUAAUAAAUAAGAAACAG | 0.362 ratio

Block 3 — method: aptamer microarray, sandwich; form: DNA with 2'F-ANA; medium: in vitro; tested at: 200 nM; with: Cy3 exosite-II aptamer, 400 nM; direction: higher = stronger binding; sequence: GGTTGGTGTGGTTGG
Target: Prothrombin, mature alpha-thrombin (F2, Homo sapiens, UniProt P00734)
Setting: whole 15-mer aptamer, many near background
Modification | mean fluorescence intensity [a.u.]
2'F-ANA at 1 4 6 10 12 13 | 50.6
2'F-ANA at 1 5 6 8 14 | 47.9
2'F-ANA at 1 3 4 5 6 8 10 13 14 | 47.6
2'F-ANA at 1 2 6 7 8 9 10 13 | 60.5
2'F-ANA at 6 7 8 10 11 12 14 15 | 96.4
2'F-ANA at 2 3 4 5 6 9 14 15 | 47.5
2'F-ANA at 7 9 11 12 | 745
2'F-ANA at 4 5 9 10 11 12 13 | 51.5
2'F-ANA at 4 6 11 12 13 14 | 94.1
2'F-ANA at 1 2 6 9 10 11 12 13 15 | 60.7
2'F-ANA at 1 2 5 6 7 11 13 15 | 56
2'F-ANA at 1 7 8 9 10 13 | 61
2'F-ANA at 1 2 3 6 8 10 11 12 14 15 | 58.3
2'F-ANA at 3 4 5 6 7 8 10 11 12 14 | 49.5
2'F-ANA at 1 2 3 4 8 11 13 15 | 138
2'F-ANA at 2 3 6 7 9 10 11 15 | 262
2'F-ANA at 7 10 11 13 14 15 | 119
2'F-ANA at 3 8 9 11 13 14 15 | 484
2'F-ANA at 3 6 8 9 10 12 13 | 457
2'F-ANA at 1 2 3 5 10 11 12 14 | 44.7
2'F-ANA at 1 3 4 5 10 13 14 | 44.5
2'F-ANA at 1 3 6 7 8 11 | 296
2'F-ANA at 5 7 9 10 14 15 | 44.5
2'F-ANA at 1 2 8 10 12 | 70.4
2'F-ANA at 2 7 8 14 15 | 204

Block 4 — method: protein binding microarray; form: double-stranded DNA, one strand shown; medium: in vitro; tested at: not given; relative to: not given; direction: higher = stronger binding
Target: Histone acetyltransferase KAT6A, winged helix 1, GST fusion (KAT6A, Homo sapiens, UniProt Q92794, residues 1-85)
Setting: 8-mer, flanks averaged, mean of 2 arrays, mostly near background
Target sequence (chain): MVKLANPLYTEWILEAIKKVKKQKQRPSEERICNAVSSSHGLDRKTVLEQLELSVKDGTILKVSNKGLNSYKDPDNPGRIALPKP
Sequence | E-score
CCAAACAA | -0.0981
ATACGTGG | -0.0971
AATCCAGC | -0.108
AAGGCATT | -0.218
GGATACGA | -0.151
ACACTTGA | -0.208
CCAACTCA | -0.251
ACAGTGAG | -0.175
GCGCCCGA | 0.405
ATAGCAAA | -0.234
AACGGCGA | 0.325
CCCCTGTC | -0.141
AAGTGTAC | -0.0443
TATGGAGA | -0.141
ATCCATCG | -0.0304
CCCAGCCG | 0.0697
AGGCTAAC | -0.109
CTGAGTCA | 0.0492

Repeated from above (block 3):
Modification | mean fluorescence intensity [a.u.]
2'F-ANA at 1 2 3 5 10 11 12 14 | 44.7
2'F-ANA at 1 3 4 5 10 13 14 | 44.5
2'F-ANA at 1 3 6 7 8 11 | 296
2'F-ANA at 5 7 9 10 14 15 | 44.5
2'F-ANA at 1 2 8 10 12 | 70.4
2'F-ANA at 2 7 8 14 15 | 204
